Published values gathered from unrelated publications.
Compare with care: the assays were run in different laboratories. ± marks the error that the study gave.
Medium: plasma

With `Cc1ncc(CO)c(C(=O)O)c1O` the Cmax was 2.9 ± 1 ng/mL (human males, Japanese; concentration not given, endogenous baseline level).
`Cn1ncnc1[C@H]1c2n[nH]c(=O)c3cc(F)cc(c23)N[C@@H]1c1ccc(F)cc1` gave a Cmax of 19.1 ng/mL (human patients; oral, 600 µg/m2 twice daily day 1, day 5, dose level DL6, median, added: temozolomide 55 mg/m2 daily days 2-6).
For `CC(C)[C@@H]1CC[C@@H](C)C[C@H]1OC(=O)O[C@@H](C)OC(=O)[C@H]1[C@@H]2C[C@H](F)[C@@](N)(C(=O)O)[C@@H]21`, the Cmax was 42.3 ng/mL (human; oral, 20 mg, fasted, single dose).
With `CNC(=O)c1ccccc1Sc1ccc2c(/C=C/c3ccccn3)n[nH]c2c1` the Cmax was 30.4 ng/mL (human, normal hepatic function (Child-Pugh); single dose, geometric mean, total drug).
The Cmax of `C=CC(=O)NC1CCN(c2ncc3ncnc(Nc4ccc(Oc5ccc6c(c5)ncn6C)c(C)c4)c3n2)CC1` is reported as 4670 nM (human, male; oral, 240 mg, fed, adjusted geometric mean).
`C=CC(=O)N1CCC[C@@H](n2c(=O)n(-c3ccc(Oc4ccccc4)cc3)c3c(N)nccc32)C1` gave a Cmax of 9.31 ng/mL (human, fasted; oral, 60 mg, geometric mean).
With `CN1C(=O)[C@@H](NC(=O)c2nnc(Cc3ccccc3)[nH]2)COc2cccnc21` the Cmax was 3160 ng/mL (human; oral, 200 mg once daily, day 14, geometric mean).
`Cc1noc(C)c1-c1cc(C(O)(c2ccccn2)c2ccccn2)c2nc(C3CC3)[nH]c2c1` has a Cmax of 367 ng/mL (human male patients, fasted; oral, 4 mg once daily, cycle 1 day 8).
The Cmax of `C[C@H](CCC(=O)NCC(=O)O)[C@H]1CC[C@H]2[C@@H]3CC[C@@H]4C[C@H](OS(=O)(=O)O)CC[C@]4(C)[C@H]3CC[C@]12C` is reported as 1550 ± 350 nM (human; concentration not given, endogenous control diurnal).
For `C[C@H](Oc1ccc(Br)cc1-c1ccon1)C(=O)O`, the Cmax was 28500 ng/mL (healthy male humans; oral, 400 mg twice daily, day 1).
`Cc1cc(C)c(CNC(=O)c2cc(Cl)c3c(c2C)O[C@@](C)([C@H]2CC[C@H](N(C)C)CC2)O3)c(=O)[nH]1` has a Cmax of 2400 ng eq/mL (refers to: total radioactivity; human male; oral, 200 mg).
`CN(C)C(=O)c1cc2cnc(Nc3ccc(N4CCNCC4)cn3)nc2n1C1CCCC1` gave a Cmax of 538 ng/mL (human, severe renal impairment; oral, 400 mg, single dose, adjusted geometric mean).
With `CN(C)N=Nc1[nH]cnc1C(N)=O` the Cmax was 36300 ng/mL (human patients; intravenous, 1000 mg/m^2 over 1 h, cycle 1 day 1, given alone).
With `CCS(=O)(=O)Nc1ccc(Oc2ccc(F)cc2F)c(-c2cn(C)c(=O)c3[nH]ccc23)c1` the Cmax was 18.5 ng/mL (human; oral, 1.5 mg, cycle 1 day 8, geometric mean).
With `N#Cc1ccc2c(c1)[C@H]1CCCN(C(=O)c3ccc4[nH]cnc4c3)[C@H]1C2` the Cmax was 14300 nM (human; oral, 240 mg once daily, after first dose).
The Cmax of `COC(=O)N[C@@H](C)CNc1nccc(-c2cn(C(C)C)nc2-c2cc(Cl)cc(NS(C)(=O)=O)c2F)n1` is reported as 3330 ng/mL (human patients; oral, 450 mg twice daily, day 14, steady state, median, added: binimetinib 45 mg once daily).
For `C[C@H](CCC(=O)O[C@@H]1O[C@H](C(=O)O)[C@@H](O)[C@H](O)[C@H]1O)[C@H]1CC[C@H]2[C@@H]3[C@H](O)C[C@@H]4C[C@H](O)CC[C@]4(C)[C@H]3CC[C@]12C`, the Cmax was 25.9 ± 3.1 nM (human; concentration not given, endogenous baseline diurnal).
`NC(=S)NN=Cc1ncccc1N` gave a Cmax of 476 ng/mL (human; oral, 100 mg).
`NCCCS(=O)(=O)O` gave a Cmax of 974 ng/mL (human; oral, 256.5 mg twice daily, day 7, capsule, fed, dosed days 2-7).
`CC(=O)N(C)[C@H]1CCN(C(=O)c2cnc3c(c2)C[C@](C)(c2ccc(F)cc2)N3)C1` gave a Cmax of 1460 nM (human, male; oral, 60 mg once daily, geometric mean).

A few entries again:
With `CNC(=O)c1ccccc1Sc1ccc2c(/C=C/c3ccccn3)n[nH]c2c1` the Cmax was 30.4 ng/mL (human, normal hepatic function (Child-Pugh); single dose, geometric mean, total drug).
With `N#Cc1ccc2c(c1)[C@H]1CCCN(C(=O)c3ccc4[nH]cnc4c3)[C@H]1C2` the Cmax was 14300 nM (human; oral, 240 mg once daily, after first dose).
With `CN1C(=O)[C@@H](NC(=O)c2nnc(Cc3ccccc3)[nH]2)COc2cccnc21` the Cmax was 3160 ng/mL (human; oral, 200 mg once daily, day 14, geometric mean).
